Published values from different studies.
Each line is one published result; not all experiments were run side by side. Values joined by “and” are separate records of one study, mostly repeats; a detail may differ. ± gives the spread as reported. ≈ marks a conversion by molar mass, not a printed value.

SMILES = C[C@H]1O[C@@H](O[C@H]2CC[C@@]3(C)[C@@H](CC[C@]4(C)[C@@H]3C=C[C@]35OC[C@@]6(CCC(C)(C)C[C@H]63)[C@@H](O)C[C@]54C)[C@]2(C)CO)[C@H](O)[C@@H](O[C@@H]2O[C@H](CO)[C@@H](O)[C@H](O)[C@H]2O)[C@H]1O; assay = histology; system = hepatic SIRT1 knockdown mice, liver; setting = dose not given, high dose, normal diet; measurement = Oil Red O area; result = 0.0398% and 0.0397% and 0.0415%
SMILES = CCNCCc1c[nH]c2cccc(O)c12.CCNCCc1c[nH]c2cccc(O)c12.O=C(O)CCC(=O)O; system = C57BL/6J mice; setting = subcutaneous, 0.1 mg/kg; measurement = head twitch response; result = 9.8 ± 2.5 count/30 min
SMILES = CCCCCCCCCCCCCCCC[N+](C)(C)CCCCCCCCCCCC[N+](C)(C)CCCCCCCCCCCCCCCC.[Br-].[Br-]; tested on = influenza A virus A/PR/8/34 (H1N1); setting = concentration not given, co-treatment; measurement = protection; result = 83.6 ± 6.6%
SMILES = Cl.ClCCN(CCCl)c1ccc(CCNc2ccnc3cc(Cl)ccc23)cc1; tested on = Dengue virus type 2; assay = viral replication, Rluc reporter replicon; system = BHK-21 DENV2 replicon cells; setting = 50 µM, 24 h; measurement = inhibition; result = 99.8 ± 0.03%
SMILES = COc1c(CCC[P+](c2ccccc2)(c2ccccc2)c2ccccc2)cc2c(c1OC)OCO2.[I-]; tested on = RXF 393; assay = SRB; measurement = TGI; result = -4.93 log M
SMILES = CCCCCCCCCCCC[N+](C)(C)CCCNCCC[N+](C)(C)CCCCCCCCCCCC.[Br-].[Br-]; tested on = influenza A virus A/PR/8/34 (H1N1); setting = concentration not given, post-treatment; measurement = protection; result = 71.2 ± 12.4%
SMILES = O=C(Cc1cccc([N+](=O)[O-])c1)N[C@H]1CCOC1=O; tested on = ExpR2 (Pectobacterium carotovorum); assay = cellulase activity, agonist; system = Pectobacterium carotovorum, single-ExpR2 strain; setting = 200 µM, 4 h; scale = reference: OHHL; measurement = activation; result = 103%
SMILES = CCCNCCc1c[nH]c2cccc(O)c12.CCCNCCc1c[nH]c2cccc(O)c12.O=C(O)/C=C/C(=O)O; system = C57BL/6J mice; setting = subcutaneous, 1 mg/kg; measurement = head twitch count; result = 13.8 ± 2.3
SMILES = C=CCN1CC[C@]23c4c5ccc(O)c4O[C@H]2C(=O)CC[C@@]3(O)[C@H]1C5; assay = tail-flick test; system = male ICR-CD1 mice; setting = subcutaneous, 5 mg/kg, 45 min; measurement = % MPE; result = -32% and -3.13% and -37.4% and 8.63% and 3.85% and 2.33%
SMILES = CC[C@H](C)[C@H](NC(=O)[C@H](C)NC(=O)[C@H](CCCCN)NC(=O)[C@H](CC(C)C)NC(=O)[C@H](C)NC(=O)[C@@H](NC(=O)[C@H](Cc1c[nH]cn1)NC(=O)[C@H](CC(C)C)NC(=O)[C@@H](NC(=O)[C@@H](NC(=O)[C@H](CCCCN)NC(=O)[C@H](C)NC(=O)[C@H](C)NC(=O)[C@H](CO)NC(=O)[C@H](CCCCN)NC(=O)[C@H](Cc1ccccc1)NC(=O)[C@@H](NC(=O)[C@H](CCCCN)NC(=O)[C@H](CC(C)C)NC(=O)[C@H](Cc1ccccc1)NC(=O)[C@H](CO)NC(=O)[C@H](CCCCN)NC(=O)[C@H](Cc1c[nH]c2ccccc12)NC(=O)[C@H](CCCCN)NC(C)=O)[C@@H](C)O)[C@@H](C)O)C(C)C)[C@@H](C)O)C(=O)N[C@@H](CO)C(=O)N[C@@H](CO)C(N)=O; tested on = Enterococcus faecalis; system = ATCC 29212; measurement = MBC range; result = 32 µg/mL (≈ 10.9 µM)
SMILES = CC(C)NCCc1c[nH]c2cccc(O)c12.O=C(O)/C=C/C(=O)O; system = C57BL/6J mice; setting = subcutaneous, 0.3 mg/kg, 30 min; measurement = distance travelled; result = 2220 ± 219 cm
SMILES = CCCCC1(CCCC)CN(c2ccccc2)c2cc(SC)c(OCC(=O)N[C@@H](C(=O)NCC(=O)O)c3ccccc3)cc2S(=O)(=O)C1; assay = measured: LDL cholesterol; system = human, serum; setting = 5 mg once daily, day 14; measurement = serum LDL-C; result = 96 mg/dL
SMILES = CCCCCCCCCCCC[N+](C)(C)CCCCCC[N+](C)(C)CCCCCCCCCCCC.[Br-].[Br-]; tested on = influenza A virus A/PR/8/34 (H1N1); setting = concentration not given, pre-treatment; measurement = HA titre reduction; result = 2.5 ± 0.5 log units
SMILES = COc1cccc(C(=O)NN(C(=O)c2cc(C)cc(C)c2)C(C)(C)C)c1C; tested on = Anopheles funestus; system = FUMOZ, resistant; setting = tarsal contact, dose not given, 24 h post blood meal, added: RME; scale = reference: control; measurement = lifespan; result = decreased
SMILES = O=C(O)/C=C/C(=O)O.Oc1cccc2[nH]cc(CCNC3CCCCC3)c12; system = C57BL/6J mice; setting = subcutaneous, 10 mg/kg, 30 min; measurement = distance travelled; result = 2620 ± 299 cm
SMILES = CN1CCN(S(=O)(=O)c2cc([N+](=O)[O-])ccc2N(CCOS(C)(=O)=O)CCOS(C)(=O)=O)CC1; system = NSG mice, sample BF PDX; setting = intraperitoneal, 25 mg/kg weekly x3; scale = reference: treated over vehicle; measurement = EFS ratio (T/C); result = 1
SMILES = CC(C)(C)NCCc1c[nH]c2cccc(O)c12.CC(C)(C)NCCc1c[nH]c2cccc(O)c12.O=C(O)/C=C/C(=O)O; system = C57BL/6J mice; setting = subcutaneous, 1 mg/kg, 30 min; measurement = distance travelled; result = 2440 ± 313 cm
SMILES = CC[C@H](C)[C@@H]1NC(=O)[C@@H]2CCCN2C(=O)[C@H](CC(C)C)NC(=O)[C@H](CC(C)C)NC(=O)CNC(=O)[C@@H](NC(=O)[C@@H](NC(=O)[C@H](CC(=O)O)NC(=O)CNC(=O)[C@@H](NC(=O)[C@H](C)NC(=O)CNC(=O)[C@H](CCCCN)NC(=O)[C@H](CC(C)C)NC(=O)[C@H](CC(C)C)NC(=O)[C@H](CCCCN)NC(=O)CNC(=O)[C@@H](NC(=O)[C@@H](N)CC(C)C)C(C)C)C(C)C)C(C)C)CSSC[C@@H](C(=O)O)NC1=O; assay = RNA-seq, measured: Marcksl1; system = mouse, traumatic brain injury model, frontal cortex and hippocampus; setting = dose not given; scale = reference: TBI alone; measurement = log2 fold change; result = -1.4
SMILES = CCCCNCCc1c[nH]c2cccc(O)c12.O=C(O)/C=C/C(=O)O; system = C57BL/6J mice; setting = subcutaneous, 30 mg/kg, 30 min; measurement = distance travelled; result = 1470 ± 318 cm
SMILES = CCCCCCCCCCCCCCCC[N+](C)(C)CCCCCCCCCC[N+](C)(C)CCCCCCCCCCCCCCCC.[Br-].[Br-]; tested on = influenza A virus A/PR/8/34 (H1N1); setting = concentration not given, post-treatment; measurement = HA titre reduction; result = 1 log units
SMILES = C=CCNCCc1c[nH]c2cccc(O)c12.C=CCNCCc1c[nH]c2cccc(O)c12.O=C(O)/C=C/C(=O)O; system = C57BL/6J mice; setting = subcutaneous, 10 mg/kg; measurement = head twitch count; result = 78.2 ± 5.5
SMILES = CN1CCN(C2(CNC3CCN(c4cccc(-c5cc6cc(F)ccc6[nH]5)c4)CC3)CCC2)CC1; tested on = NCI-H322M; measurement = GI50; result = 1870 nM
SMILES = COc1cc(CCC[P+](c2ccccc2)(c2ccccc2)c2ccccc2)c(OC)c2c1OCO2.[I-]; tested on = NCI-H23; assay = SRB; measurement = LC50; result = -4.32 log M

A few entries again:
SMILES = C=CCN1CC[C@]23c4c5ccc(O)c4O[C@H]2C(=O)CC[C@@]3(O)[C@H]1C5; assay = tail-flick test; system = male ICR-CD1 mice; setting = subcutaneous, 5 mg/kg, 45 min; measurement = % MPE; result = -32% and -3.13% and -37.4% and 8.63% and 3.85% and 2.33%
SMILES = CC[C@H](C)[C@H](NC(=O)[C@H](C)NC(=O)[C@H](CCCCN)NC(=O)[C@H](CC(C)C)NC(=O)[C@H](C)NC(=O)[C@@H](NC(=O)[C@H](Cc1c[nH]cn1)NC(=O)[C@H](CC(C)C)NC(=O)[C@@H](NC(=O)[C@@H](NC(=O)[C@H](CCCCN)NC(=O)[C@H](C)NC(=O)[C@H](C)NC(=O)[C@H](CO)NC(=O)[C@H](CCCCN)NC(=O)[C@H](Cc1ccccc1)NC(=O)[C@@H](NC(=O)[C@H](CCCCN)NC(=O)[C@H](CC(C)C)NC(=O)[C@H](Cc1ccccc1)NC(=O)[C@H](CO)NC(=O)[C@H](CCCCN)NC(=O)[C@H](Cc1c[nH]c2ccccc12)NC(=O)[C@H](CCCCN)NC(C)=O)[C@@H](C)O)[C@@H](C)O)C(C)C)[C@@H](C)O)C(=O)N[C@@H](CO)C(=O)N[C@@H](CO)C(N)=O; tested on = Enterococcus faecalis; system = ATCC 29212; measurement = MBC range; result = 32 µg/mL (≈ 10.9 µM)
